Measurements collected from several papers.
Each line is one published result; not all experiments were run side by side. Several values in a cell are separate wells, animals, samples, runs or records. ± gives the spread as reported.
GUK1: GUK1 (Homo sapiens, UniProt Q16774)
CBK1: Serine/threonine-protein kinase CBK1 (CBK1, Candida albicans, UniProt Q5AP53)
Nuclear receptor subfamily 2 group C member 2 ligand-binding domain: Nuclear receptor subfamily 2 group C member 2, ligand-binding domain (Homo sapiens, UniProt P49116)
HTR1A: 5-hydroxytryptamine receptor 1A (HTR1A, Homo sapiens, UniProt P08908)
DCAF1: DDB1- and CUL4-associated factor 1 (DCAF1, Homo sapiens, UniProt Q9Y4B6)

`O=C(COP(=O)(O)O)[C@@H](O)[C@H](O)[C@H](O)COP(=O)(O)O`: “thermal stability ratio” 0.692 (Large ribosomal subunit protein uL30 (Homo sapiens, UniProt P18124); thermal proteome profiling, item: RPL7; HepG2 cell lysate; concentration not given, 57 over 37 °C, mean; reference: compound over control).
With `Nc1nc2c(ncn2[C@@H]2O[C@H](COP(=O)(O)O)[C@@H](O)[C@H]2O)c(=O)[nH]1` the reaction velocity was 0.126 µM/s and 0.143 µM/s and 0.115 µM/s (GUK1; enzyme activity, NADH-coupled; 2000 µM, with: KCl 10 mM).
Under “-TΔS of binding”, `Nc1ncnc2c1ncn2[C@@H]1O[C@H](C[C@@H](N)CC[C@H](N)C(=O)O)[C@@H](O)[C@H]1O` is recorded as 5.43 kcal/mol (O-methyltransferase (Sorghum bicolor, UniProt A0A1B6PFV1); isothermal titration calorimetry; concentration not given, apo protein).
Under “-TΔS of binding”, `Nc1nc2c(ncn2[C@@H]2O[C@H](COP(=O)(O)OP(=O)(O)O)[C@@H](O)[C@H]2O)c(=O)[nH]1` is recorded as 0.263 kcal/mol (GUK1; ITC; concentration not given).
`N#Cc1ccn2c(-c3ccncc3)c(-c3ccc(F)cc3)nc2c1`: “log2 fold change” -0.301 (CBK1; kinase binding, competitor, MIB/MS competition, item: CBK1; Candida albicans cell lysate; 10 µM; reference: DMSO).
`CC(C)=CCC/C(C)=C/C=C/C(C)=C/C=C/C(C)=C/C=C/C=C(C)/C=C/C=C(C)/C=C/C=C(\C)CCC=C(C)C` — result for “number of binding sites”: 0.98 (Beta-lactoglobulin (LGB, Bos taurus, UniProt P02754); fluorescence quenching; concentration not given, 303 K).
`CCOCc1nc(O)c(-c2nnc(Cc3ccc(Cl)cn3)o2)c(O)c1-c1c(OC)cccc1OC` has an Emax of 105 ± 5% (Apelin receptor (APLNR, Homo sapiens, UniProt P35414); Gαi2 activation, agonist, BRET biosensor; HEK293).
`Nc1ncnc2c1ncn2[C@@H]1O[C@H](COP(=O)(O)OP(=O)(O)OP(=O)(O)O)[C@@H](O)[C@H]1O` — result for “mean open time”: 25 ms (ATP-sensitive inward rectifier potassium channel 1 (Rattus norvegicus, UniProt P35560); inside-out patch clamp; renal principal cells, rat; 0.4 mM).
With `N[C@@H](Cc1ccccc1)C(=O)O` the ΔH was -37.7 kcal/mol (PAL1 (Petroselinum crispum, UniProt P24481, Y110F); binding, ITC).
`CCN1CCC[C@H]1CNC(=O)c1c(O)c(Cl)cc(Cl)c1OC` — result for “log2 fold change”: -0.00537 (Mas-related G-protein coupled receptor member G (MRGPRG, Homo sapiens, UniProt Q86SM5); β-arrestin recruitment, TANGO luminescence, item: MRGPRG; concentration not given; reference: basal luminescence).
The inhibition of `CC[C@@H]1[C@H](F)C(=O)N[C@@H]1COc1nccc2cc(C(N)=O)c(OC)cc12` is reported as 3.9% (MAP2K1 (Homo sapiens, UniProt Q02750); ATP-site probe binding, ActivX profiling; THP-1 cell lysate; 0.2 mM, Lys2 site).
For `C=CC(=O)N1CCC(COCC(=O)N2CCN(c3nc(-c4cnc(N)nc4C(F)F)nc(N4CCOC[C@@H]4C)n3)CC2)CC1`, the remaining binding was 100% (EPHA4 (Homo sapiens, UniProt P54764); KINOMEscan; 1 µM).
`CCCC[C@H]1CN(c2cccc(OC(F)(F)F)c2)C(=O)CN1Cc1cncn1Cc1ccc(F)cc1` gave an IC50 of 710 ± 240 nM (Cryptococcus neoformans farnesyltransferase; enzyme activity, inhibitor, fluorescence; with: 1 µM FPP, 0.5 µM dansylated peptide).
For `N#Cc1ccc2[nH]cc(CCCCN3CCN(c4ccc5oc(C(N)=O)cc5c4)CC3)c2c1`, the Hill coefficient was 2.48 ± 0.41 (SLC6A4 (Homo sapiens, UniProt P31645); serotonin uptake, inhibitor; COS-7 expressing SLC6A4; 45 min preincubation, with: [3H]5-HT).
The protein level of `CC(C)OCCn1c(=S)[nH]c(=O)c2[nH]ccc21` is reported as 2370 ng/mL and 2450 ng/mL and 982 ng/mL (Myeloperoxidase (Mus musculus, UniProt P11247); ELISA, item: myeloperoxidase; mice, zymosan or thioglycolate peritonitis, peritoneal lavage; 60 mg/kg).
With `COCCCOc1cc(C[C@@H](C[C@H](N)[C@@H](O)C[C@H](C(=O)NCC(C)(C)C(N)=O)C(C)C)C(C)C)ccc1OC` the koff was 5.84e-06 s⁻¹ (Nuclear receptor subfamily 2 group C member 2 ligand-binding domain; SPR imaging; 600 nM).
For `CC(=O)c1ccc2cc(S(=O)(=O)Nc3ccc(F)cc3)ccc2c1`, the log IC50 was 0.555 (STAT3 (Homo sapiens, UniProt P40763); tyrosine phosphorylation, inhibitor, ELISA, item: phospho-Tyr705).
`Nc1c(Br)cc(Br)cc1CN[C@H]1CC[C@H](O)CC1` gave an activation of -182% (SCN1A (Homo sapiens, UniProt P35498); ion current; 3 µM, 0.08333 h).
Under “binding free energy”, `C[C@H](N)C(=O)N[C@@H](CCCNC(=N)N(C)C)C(=O)N[C@H](C(=O)N[C@@H](CCCCN)C(=O)N[C@@H](CCC(N)=O)C(=O)N[C@H](C(=O)N[C@@H](C)C(=O)N[C@@H](CCCNC(=N)N)C(=O)N[C@@H](CCCCN)C(=O)N[C@@H](CO)C(=O)O)[C@@H](C)O)[C@@H](C)O` is recorded as -6.98 kcal/mol (Transcriptional regulator ATRX (ATRX, Homo sapiens, UniProt P46100, F284Y/K251R); isothermal titration calorimetry; pH 7.5, 25.0 °C).
`CC(C)C[C@@H]1NC(=O)CNC(=O)[C@H](CC(C)C)NC(=O)[C@@H]2CCCN2C(=O)[C@H](CC(=O)O)NC(=O)[C@H](Cc2ccc(O)cc2)NC(=O)CNC(=O)[C@@H](Cc2ccc(O)cc2)NC(=O)CSC[C@@H](C(N)=O)NC(=O)[C@H](C)NC(=O)[C@H](Cc2ccccc2)NC(=O)[C@H](Cc2ccc(O)cc2)NC(=O)[C@H](CCCCN)NC1=O` gave a -TΔS of 2.4 ± 1.1 kcal/mol (VPS35/VPS29 (Homo sapiens, UniProt Q96QK1+Q9UBQ0); binding, ITC; 25 °C, heterodimer).
With `COc1cc(-c2cncc3c2CN(C)Cc2cc(N4CCNCC4)ccc2-3)cc(OC)c1OC` the remaining activity was 105% (NEK4 (Homo sapiens, UniProt P51957); kinase activity; 1 µM, human enzyme, with: ATP 10 µM; reference: DMSO control).
`O=C(O)c1ccc(Nc2ncc3c(n2)-c2ccc(Cl)cc2C(c2c(F)cccc2F)=NC3)cc1` gave a remaining activity of 95% (SAPK2b(h); kinase activity; 1 µM).
With `O=C1c2ccccc2CCCN1CCCCN1CCN(c2ccccn2)CC1` the inhibition was 99% (HTR1A; radioligand binding; concentration not given, with: [3H]8-OH-DPAT).
`CC(Oc1ccccc1)C(=O)NCc1ccccn1` (centres unmarked): “log fold enrichment” -0.148 (DCAF1; binding, affinity selection mass spectrometry; reference: other proteins in batch).
With `O=C(O)CCCC[C@@H]1SC[C@@H]2NC(=O)N[C@@H]21` the koff was 5.93e-07 s⁻¹ (Nuclear receptor subfamily 2 group C member 2 ligand-binding domain; SPR imaging; 600 nM).
Under “log fold enrichment”, `CC1(C)CC2(C)OC(=O)NC2(C)c2ccccc21` (centres unmarked) is recorded as -0.137 (Coatomer subunit beta', WD repeat domain (Homo sapiens, UniProt P35606); binding, affinity selection mass spectrometry; reference: other proteins in batch).
The inhibition of `Cc1cc(-c2ccnc3[nH]cc(F)c23)cc(F)c1[C@@]1(O)[C@H](C)CN(C(=O)CN)C[C@@H]1C` is reported as 7% (AKT1 and AKT3; ATP probe binding, KiNativ, item: Lys2 site; HEK293T cell lysate; 1 µM).
`O=C(O)c1cccnc1` gave a koff of 9.14e-06 s⁻¹ (Nuclear receptor subfamily 2 group C member 2 ligand-binding domain; binding).
`CC[S+]([O-])c1nc(-c2ccccc2)cc(C(F)(F)F)n1` (centres unmarked) — result for “cells with nuclear reporter”: 2.94% and 3.46% and 0.98% (Exportin-1 (XPO1, Homo sapiens, UniProt O14980); nuclear export, high content imaging; HeLa Kyoto reporter; 5 µM, 2 h).
`COc1cnc(NS(=O)(=O)c2ccc(N)cc2)nc1` gave a koff of 1.84e-07 s⁻¹ (Nuclear receptor subfamily 2 group C member 2 ligand-binding domain; SPR imaging; 600 nM).
Under activity, `O=S1(=O)N=C(Nc2ccccc2)c2ccccc21` is recorded as “inactive” (PKLR (Homo sapiens, UniProt P30613); enzyme activity, activator; 10 µM).
Under “normalised MST signal”, `O=S(=O)(O)C1CCNCC1` is recorded as 0.0221 (SLC6A6 (Homo sapiens, UniProt P31641, G62A); binding, microscale thermophoresis; 15.6 µM, room temperature, with: 50 nM labelled protein; higher = more binding).
`Cc1ccccc1C1CC(=O)c2c(C)nc(N)nc2C1` (centres unmarked) gave a fold enrichment of 0.895 (DCAF1; binding, affinity selection mass spectrometry; reference: other proteins in batch).
For `CC#Cc1cncc(-c2ccc3c(c2)[C@@]2(N=C(C)C(N)=N2)[C@]2(CC[C@H](OC)CC2)C3)c1`, “time to complete displacement” read about 15 h (Beta-secretase 1 (BACE1, Homo sapiens, UniProt P56817); binding, surface plasmon resonance; 20 µM).
For `COc1ccccc1OCC(O)COC(N)=O` (centres unmarked), the koff was 8.8e-07 s⁻¹ (Nuclear receptor subfamily 2 group C member 2 ligand-binding domain; SPR imaging; 600 nM).
`COc1ccccc1N1CCN(CCCCN2CCc3ccccc3C2=O)CC1` gave an inhibition of 101% (HTR1A; radioligand binding; concentration not given, with: [3H]8-OH-DPAT).
For `N[C@H](COP(=O)(O)O)Cc1c[nH]cn1`, the Km was 340 ± 63 µM (Beta2; substrate, coupled phosphate release).
`Cc1ccccc1C(=O)Nc1ccc(C(=O)N2CCCC(O)c3cc(Cl)ccc32)c(C)c1` (centres unmarked) gave a koff of 1.97e-07 s⁻¹ (Nuclear receptor subfamily 2 group C member 2 ligand-binding domain; SPR imaging; 600 nM).
With `CCCC[C@H](NC(=O)[C@H](C)c1c(C)[nH]c2ccc(O)cc12)c1ncc(-c2cc3ccccc3nc2OC)[nH]1` the Hill coefficient was 1 (HTR1A).
Under “log2 fold change”, `Oc1ccccc1-c1n[nH]cc1-c1ccnc2ccccc12` is recorded as 0.05 (CBK1; kinase binding, MIB/MS competition; Candida albicans lysate; 10 µM; reference: DMSO, negative = stronger binding).
The Vmax of `O=C1OC(c2ccccc2)=N/C1=C\c1ccccc1` is reported as 0.042 mM/min (MAL12 (Saccharomyces cerevisiae S288c, UniProt P53341); inhibitor, Lineweaver-Burk; 1600 ppm, with: pNPG substrate).
`Nc1ncnc2c1ncn2[C@@H]1O[C@H](COP(=O)(O)CP(=O)(O)OP(=O)(O)O)[C@@H](O)[C@H]1O` gave a specific binding of 4030 CCPM and 4470 CCPM and 12700 CCPM (P2X purinoceptor 1 (P2RX1, Homo sapiens, UniProt P51575, S286A); saturation binding; HEK293; 79 nM).
Under “mean decatenated DNA”, `Cc1nc(CSc2nc(SCc3ccc(C(C)C)cc3)nc(=O)[nH]2)cs1` is recorded as 52.4% (TOP2A (Homo sapiens, UniProt P11388); decatenation; 15.6 µM).
`CC(C)C[C@@H]1NC(=O)[C@H](C(C)C)NC(=O)CNC(=O)[C@H](CC(N)=O)NC(=O)[C@@H]2CCCN2C(=O)[C@H](Cc2ccc(O)cc2)NC(=O)[C@H](CCCNC(=N)N)NC(=O)[C@H](Cc2ccccc2)NC(=O)[C@@H](NC(=O)[C@H](CCCCN)NC(=O)[C@@H]2CCCN2C(=O)[C@H](C)NC(=O)[C@H](C)NC(=O)[C@@H](N)Cc2ccc(O)cc2)CSSC[C@@H](C(=O)N[C@H](C(N)=O)[C@@H](C)O)NC(=O)[C@H](C)NC1=O` has a binding stoichiometry of 0.115 (Alpha-2-HS-glycoprotein, asialo (AHSG, Bos taurus, UniProt P12763); isothermal titration calorimetry; concentration not given, pH 7.0, 25 °C, with: asialofetuin).
